Published values collected from several papers.
Compare with care: the assays were run in different laboratories. ± gives the spread as reported.
POLB: DNA polymerase beta (POLB, Homo sapiens, UniProt P06746)
CXCL8: Interleukin-8 (CXCL8, Homo sapiens, UniProt P10145)

`Nc1nc2c(ncn2C2CC(O)C(COP(=O)(O)OP(=O)(O)C(F)(Cl)P(=O)(O)O)O2)c(=O)[nH]1` (mixture of isomers) gave a Kd of 833 ± 345 µM (POLB; nucleotide binding, substrate, single turnover kinetics; 37 °C, dG misincorporation opposite A).
For `CC[C@H](C)[C@H](NC(=O)[C@H](CC(C)C)NC(=O)[C@H](CCCNC(=N)N)NC(=O)c1ccc(CN2CCN(C)CC2)cc1)C(=O)N[C@@H](Cc1ccccc1)C(N)=O`, the Kd was 4.77 ± 0.417 µM (Cyclin-A2 (CCNA2, Homo sapiens, UniProt P20248); binding, tryptophan fluorescence titration; co-expressed trigger factor).
The Kd of `C[n+]1cn(C2OC(COP(=O)(O)OP(=O)([O-])OP(=O)(O)OCC3OC(n4cnc5c(=O)[nH]c(N)nc54)C(O)C3O)C(O)C2O)c2nc(NCc3ccc(Cl)cc3)[nH]c(=O)c21` (centres unmarked) is reported as 3.1 µM (Eif4e (Mus musculus, UniProt P63073); differential scanning fluorimetry).
`C[n+]1cn([C@@H]2O[C@H](COP(=O)(O)OP(=O)(O)CP(=O)(O)O)[C@@H](O)[C@H]2O)c2nc(N)nc([O-])c21` gave a Kd of 0.0513 µM (Eukaryotic translation initiation factor 4E, residues 28-217 (Eif4e, Mus musculus, UniProt P63073); binding, fluorescence quenching titration; pH 7.2, 20 °C).
`CC[C@H](C)[C@@H]1NC(=O)[C@H](C)NC(=O)[C@H](C)NC(=O)[C@H]([C@@H](C)O)NC(=O)[C@H](Cc2ccccc2)NC(=O)[C@@H]2CSSC[C@@H]3NC(=O)[C@H](C(C)C)NC(=O)[C@H](CCCCN)NC(=O)[C@H](CO)NC(=O)[C@H](CCCCN)NC(=O)[C@@H]4CSSC[C@H](NC(=O)[C@H](CO)NC(=O)[C@H](CCC(=O)O)NC(=O)CNC(=O)[C@H](CSSC[C@H](NC(=O)CNC1=O)C(=O)N[C@@H](CO)C(=O)N4)NC(=O)[C@@H]1CCCN1C(=O)[C@H](C)NC(=O)CNC(=O)[C@H](CC(N)=O)NC(=O)[C@H](CCCCN)NC(=O)[C@H](Cc1ccc(O)cc1)NC3=O)C(=O)N[C@@H](C(C)C)C(=O)N[C@@H](Cc1ccc(O)cc1)C(=O)N[C@@H](CC(C)C)C(=O)N1CCC[C@H]1C(=O)N2` has a Kd of 13.1 ± 0.88 µM (POPC/POPE lipid membrane; membrane binding, surface plasmon resonance; POPC/POPE 80:20 vesicles; pH 7.4).
The Kd of `Cc1cn([C@H]2C[C@H](O)[C@@H](COP(=O)(O)OP(=O)(O)C(Br)(Br)P(=O)(O)O)O2)c(=O)[nH]c1=O` is reported as 71.7 ± 10.8 µM (POLB; dNTP binding, substrate, single-turnover kinetics; single-nucleotide gapped DNA; 37 °C, wild type, correct incorporation, together with: dTTP opposite template A).
The Kd of `CC(=O)N[C@@H]1[C@@H](O[C@@H]2O[C@H](C(=O)O)[C@@H](O[C@@H]3O[C@H](COS(=O)(=O)O)[C@@H](OS(=O)(=O)O)[C@H](O[C@@H]4O[C@H](C(=O)O)[C@@H](OS(=O)(=O)O)[C@H](OS(=O)(=O)O)[C@H]4OS(=O)(=O)O)[C@H]3NC(C)=O)[C@H](OS(=O)(=O)O)[C@H]2OS(=O)(=O)O)[C@H](OS(=O)(=O)O)[C@@H](COS(=O)(=O)O)O[C@H]1SCCOCCOCCSSCCOCCOCCS[C@@H]1O[C@H](COS(=O)(=O)O)[C@@H](OS(=O)(=O)O)[C@H](O[C@@H]2O[C@H](C(=O)O)[C@@H](O[C@@H]3O[C@H](COS(=O)(=O)O)[C@@H](OS(=O)(=O)O)[C@H](O[C@@H]4O[C@H](C(=O)O)[C@@H](OS(=O)(=O)O)[C@H](OS(=O)(=O)O)[C@H]4OS(=O)(=O)O)[C@H]3NC(C)=O)[C@H](OS(=O)(=O)O)[C@H]2OS(=O)(=O)O)[C@H]1NC(C)=O` is reported as 0.012 µM (CXCL8; ligand displacement, FP).
`CC[C@H](C)[C@H](NC(=O)[C@H](CC(=O)O)NC(=O)[C@H](CO)NC(C)=O)C(=O)N[C@@H](CSCc1ccccc1)C(=O)N[C@@H](CC(=O)O)C(=O)N[C@@H](Cc1ccccc1C)C(=O)N[C@H](C(=O)N[C@@H](CC(C)C)C(=O)N[C@@H](CCCCN)C(=O)N[C@@H](CC(N)=O)C(=O)N[C@@H](Cc1ccc(O)cc1)C(=O)N1CCC[C@H]1C(=O)O)[C@@H](C)CC` has a Kd of 3.3 ± 0.5 µM (CREB-binding protein, KIX domain (CREBBP, Homo sapiens, UniProt Q92793); binding, fluorescence polarisation).
`CCOC(=O)c1nc2cc(Cl)c(Cl)cc2nc1N1CCN(C(=O)Nc2ccc(N3CCNCC3)cc2)CC1` has a Kd of 0.0991 µM (PGK1 (Homo sapiens, UniProt P00558); binding, MST).
For `C=CC(=O)N1CCCC(n2c(=O)c3ncccc3n(Cc3ccc(Oc4ccccc4)cc3)c2=O)C1` (centres unmarked), the Kd was 110 µM (WAS (Homo sapiens, UniProt P42768); binding, SPR).
The Kd of `CNc1ccccc1C(=O)O[C@H]1C[C@H](n2cnc3c(N)ncnc32)O[C@@H]1COP(=O)(O)OP(=O)(O)O` is reported as 7.9 ± 1.87 µM (Unconventional myosin-Va (Gallus gallus, UniProt Q02440, D297C/G292C/I296C/S293C/V295G); stopped-flow FRET; 25 °C, together with: EDTA 4 mM).
For `Nc1nc2c(ncn2[C@H]2C[C@H](O)[C@@H](COP(=O)(O)OP(=O)(O)[C@H](F)P(=O)(O)O)O2)c(=O)[nH]1`, the Kd was 6.2 ± 2.2 µM (POLB; substrate, quench-flow kinetics; pH 8.0, 37 °C, incorporation opposite C in gapped DNA).
`CC[C@H](C)[C@@H]1NC(=O)[C@H](CCC(N)=O)NC(=O)CNC(=O)[C@H]([C@@H](C)O)NC(=O)[C@H](Cc2c[nH]c3ccccc23)NC(=O)[C@H](CCCNC(=N)N)NC(=O)[C@H](C)NC(=O)[C@H](C(C)C)NC(=O)[C@H](CCCNC(=N)N)NC(=O)[C@@H]2CCCN2C(=O)[C@H](CCCNC(=N)N)NC(=O)[C@@H](Cc2c[nH]c3ccccc23)NC(=O)CSC[C@@H](C(=O)N[C@@H](CO)C(N)=O)NC(=O)[C@H](Cc2ccc(O)cc2)NC(=O)[C@H]([C@@H](C)CC)NC1=O` has a Kd of 0.0028 µM (Plexin-B1 (PLXNB1, Homo sapiens, UniProt O43157); SPR).
For `NC(=O)CCC(=O)N1CCOC(CC(c2ccccc2)c2ccccc2)C1` (centres unmarked), the Kd was 482 ± 300 µM (Troponin C, slow skeletal and cardiac muscles, with cTnI (TNNC1, Human, UniProt P63316, C35S/C84S/T53C); slowing of Ca2+ dissociation, stopped-flow fluorescence; pH 7.0, 15 °C, IAANS-labelled chimera).
For `O=C(O)C1CC1C(=O)c1ccc(Cl)c(Cl)c1` (centres unmarked), the Kd was 3.1 ± 0.2 µM (Kynurenine 3-monooxygenase, residues 1-394 (Saccharomyces cerevisiae, UniProt P38169, R83A); binding, flavin fluorescence; 25 °C, R83A variant).
For `CNCCNC(=O)CN1C(=O)Cc2c([nH]c3ccc(Br)cc23)-c2ccc(Cl)cc21`, the Kd was 0.052 µM (Trypanothione synthetase (Leishmania infantum, UniProt A4I2Z3); isothermal titration calorimetry; together with: ADP 2 mM).
With `CC#Cc1cc2c3c(c1)O[C@H](CO)[C@H](O)[C@@H]3OC2` the Kd was 440 µM (Galectin-8 (LGALS8, Homo sapiens, UniProt O00214); cell-free assay, FP).
For `Nc1nc2c(ncn2[C@H]2C[C@H](O)[C@@H](COP(=O)(O)OP(=O)(O)[C@H](Cl)P(=O)(O)O)O2)c(=O)[nH]1`, the Kd was 3.2 ± 0.8 µM (POLB; substrate, quench-flow kinetics; pH 8.0, 37 °C, incorporation opposite C in gapped DNA).
For `N#Cc1cccc(-c2ccc(=O)n(Cc3cccc(-c4ncc(OCC5CCN(CC(=O)N6CCN(c7ccc8c(c7)C(=O)N(C7CCC(=O)NC7=O)C8=O)CC6)CC5)cn4)c3)n2)c1` (centres unmarked), the Kd was 0.17 µM (MET (Homo sapiens, UniProt P08581); binding).
With `CC(=O)N[C@H]1[C@H](O[C@H]2[C@H](OS(=O)(=O)O)[C@@H](OS(=O)(=O)O)[C@H](O[C@H]3[C@H](OS(=O)(=O)O)[C@@H](COS(=O)(=O)O)OC[C@@H]3NC(C)=O)O[C@@H]2C(=O)O)O[C@H](COS(=O)(=O)O)[C@@H](OS(=O)(=O)O)[C@@H]1O[C@@H]1O[C@H](C(=O)O)[C@@H](OS(=O)(=O)O)[C@H](OS(=O)(=O)O)[C@H]1OS(=O)(=O)O` the Kd was 6.5 µM (CXCL8; ligand displacement, FP).
For `CC[C@H](C)[C@H](NC(=O)[C@@H]1CCCN1C(=O)[C@H](Cc1c[nH]cn1)NC(=O)[C@@H](NC(=O)[C@H](Cc1ccc(O)c(I)c1)NC(=O)[C@@H](NC(=O)[C@H](CCCNC(=N)N)NC(=O)CNC)C(C)C)[C@@H](C)CC)C(=O)O` [iodine-125 labelled], the Kd was 0.00069 ± 0.00035 µM (angiotensin II receptor type 1, rat; binding, saturation radioligand binding; female rat, proestrus, liver membranes).
The Kd of `CC(P(=O)(O)O)P(=O)(O)OP(=O)(O)OCC1OC(n2cnc3c(=O)[nH]c(N)nc32)CC1O` (mixture of isomers) is reported as 236 ± 107 µM (DNA polymerase beta (POLB, Homo sapiens, UniProt P06746, I260M); nucleotide binding, substrate, single turnover kinetics; 37 °C, dG misincorporation opposite A).
`Cc1cc2c(Nc3ccc(O)cc3)ncnc2s1` gave a Kd of 140 µM (TRAF4, TRAF-C domain (Homo sapiens, UniProt Q9BUZ4); binding; pH 7.4, 25 °C, 5% DMSO-d6).

Excerpt of the above:
`C[n+]1cn([C@@H]2O[C@H](COP(=O)(O)OP(=O)(O)CP(=O)(O)O)[C@@H](O)[C@H]2O)c2nc(N)nc([O-])c21` gave a Kd of 0.0513 µM (Eukaryotic translation initiation factor 4E, residues 28-217 (Eif4e, Mus musculus, UniProt P63073); binding, fluorescence quenching titration; pH 7.2, 20 °C).
`CC[C@H](C)[C@@H]1NC(=O)[C@H](C)NC(=O)[C@H](C)NC(=O)[C@H]([C@@H](C)O)NC(=O)[C@H](Cc2ccccc2)NC(=O)[C@@H]2CSSC[C@@H]3NC(=O)[C@H](C(C)C)NC(=O)[C@H](CCCCN)NC(=O)[C@H](CO)NC(=O)[C@H](CCCCN)NC(=O)[C@@H]4CSSC[C@H](NC(=O)[C@H](CO)NC(=O)[C@H](CCC(=O)O)NC(=O)CNC(=O)[C@H](CSSC[C@H](NC(=O)CNC1=O)C(=O)N[C@@H](CO)C(=O)N4)NC(=O)[C@@H]1CCCN1C(=O)[C@H](C)NC(=O)CNC(=O)[C@H](CC(N)=O)NC(=O)[C@H](CCCCN)NC(=O)[C@H](Cc1ccc(O)cc1)NC3=O)C(=O)N[C@@H](C(C)C)C(=O)N[C@@H](Cc1ccc(O)cc1)C(=O)N[C@@H](CC(C)C)C(=O)N1CCC[C@H]1C(=O)N2` has a Kd of 13.1 ± 0.88 µM (POPC/POPE lipid membrane; membrane binding, surface plasmon resonance; POPC/POPE 80:20 vesicles; pH 7.4).
